Published values pooled from the literature.
Each line is one published result; not all experiments were run side by side. “And” joins repeats or separate records; there may be more than shown. ± marks the error that the study gave. ≈ marks a conversion by molar mass, not a printed value.

SMILES | assay | test system | conditions | quantity | result
O=P1(O)CC=Cc2cc(-c3cccc(F)c3)ccc2O1 | HPLC-UV | 50 mM PBS | 16 h, pH 7.4, 25 °C, upper limit 2.5 mg/mL | kinetic solubility | 2260 µg/mL (≈ 7.79 mM)
C=Cc1c(C)c2cc3nc(c(CC(=O)O)c4[nH]c(cc5nc(cc1[nH]2)C(C)=C5CC)c(C)c4C(=O)O)[C@@H](CCC(=O)NCCCC[C@H](NC(C)=O)C(=O)N[C@@H](Cc1ccccc1)C(=O)N[C@@H](Cc1ccccc1)C(=O)N[C@H](C(=O)N[C@@H](CC(C)C)C(=O)N[C@@H](CCCCN)C(=O)N[C@@H](CO)C(=O)NCC(=O)N[C@@H](CCC(N)=O)C(=O)N[C@@H](Cc1ccc(O)cc1)C(=O)N[C@@H](C)C(=O)N[C@@H](CO)C(=O)N[C@@H](Cc1ccc(O)cc1)C(=O)N[C@@H](Cc1c[nH]cn1)C(=O)N[C@@H](CS)C(=O)N[C@@H](Cc1c[nH]c2ccccc12)C(=O)N[C@@H](CS)C(=O)N[C@@H](Cc1c[nH]c2ccccc12)C(=O)N[C@@H](CCCNC(=N)N)C(=O)N[C@@H](CC(=O)O)C(=O)N1CCC[C@H]1C(=O)NCC(=O)N[C@@H](CCCNC(=N)N)C(=O)N[C@@H](CO)C(=O)NCC(=O)NCC(=O)N[C@@H](CO)C(=O)N[C@@H](CCCCN)C(N)=O)C(C)C)[C@@H]3C | – | mouse, blood | 24 h | blood concentration | 54.4 µg/mL
C=Cc1c(C)c2cc3nc(c(CC(=O)[O-])c4[n-]c(cc5nc(cc1[n-]2)C(C)=C5CC)c(C)c4C(=O)[O-])C(CCC(=O)[O-])C3C.[Cu+2].[Na+].[Na+].[Na+] (stereo not drawn) | – | Wistar rat | oral, 28 days daily | NOAEL | > 1000 mg/kg bw
CCCCCCCCCCCCCC(=O)N[C@@H](CCCNC(=N)N)C(=O)N[C@@H](Cc1c[nH]c2ccccc12)C(=O)N[C@@H](CCCCN)C(=O)N[C@H](C(=O)N[C@@H](Cc1ccccc1)C(=O)N[C@@H](CCCCN)C(=O)N[C@@H](CCCCN)C(=O)N[C@H](C(=O)N[C@@H](CCC(=O)O)C(=O)N[C@@H](CCCCN)C(=O)N[C@H](C(=O)NCC(=O)N[C@@H](CCC(N)=O)C(=O)N[C@@H](CC(N)=O)C(=O)N[C@H](C(=O)N[C@@H](CCCNC(=N)N)C(=O)N[C@@H](CC(=O)O)C(=O)NCC(=O)N[C@H](C(=O)N[C@H](C(=O)N[C@@H](CCCCN)C(=O)N[C@@H](C)C(=O)NCC(=O)N1CCC[C@H]1C(=O)N[C@@H](C)C(=O)N[C@H](C(=O)N[C@@H](C)C(=O)N[C@H](C(=O)N[C@H](C(=O)NCC(=O)N[C@@H](CCC(N)=O)C(=O)N[C@@H](C)C(=O)N[C@@H](C)C(=O)N[C@H](C(=O)N[C@H](C(N)=O)[C@@H](C)CC)[C@@H](C)O)C(C)C)C(C)C)C(C)C)C(C)C)[C@@H](C)CC)[C@@H](C)CC)C(C)C)[C@@H](C)CC)[C@@H](C)CC | – | mouse erythrocytes | 50 µM, 1 h, 37 °C | hemolysis | ~60%
CN[C@H](CC(C)C)C(=O)N[C@H]1C(=O)N[C@@H](CC(N)=O)C(=O)N[C@H]2C(=N)N[C@H]3C(=O)N[C@H](C(=O)N[C@H](C(=O)NCCCNC(=N)N)c4cc(O)cc(O)c4-c4cc3ccc4O)[C@H](O)c3ccc(c(Cl)c3)Oc3cc2cc(c3O[C@@H]2O[C@H](CO)[C@@H](O)[C@H](O)[C@H]2O[C@H]2C[C@](C)(NCc3ccc(-c4ccc(Cl)cc4)cc3)[C@H](O)[C@H](C)O2)Oc2ccc(cc2Cl)[C@H]1O | – | mouse | intravenous, 10 mg/kg | clearance | 0.69 mL/min/kg
CCCC[C@H]1C(=O)N(C)[C@@H](CCCC)C(=O)N[C@@H](CCCNC(=O)CN2CCN(CC(=O)O)CCN(CC(=O)O)CCN(CC(=O)O)CC2)C(=O)N[C@H](C(=O)NCC(N)=O)CSCC(=O)N[C@@H](Cc2ccc(O)cc2)C(=O)N(C)[C@@H](C)C(=O)N[C@@H](CC(N)=O)C(=O)N2CCC[C@H]2C(=O)N[C@@H](Cc2c[nH]cn2)C(=O)N[C@@H](CC(C)C)C(=O)N(C)CC(=O)N[C@@H](Cc2c[nH]c3ccccc23)C(=O)N[C@@H](CO)C(=O)N[C@@H](Cc2c[nH]c3ccccc23)C(=O)N1C [gallium-68 labelled] | radio-HPLC | fetal bovine serum | 0 min, 37 °C | radiochemical purity | 98.6%
CC(C)[C@@H]1NC(=O)CNC(=O)[C@H](CC(N)=O)NC(=O)[C@H](CCCNC(=N)N)NC(=O)[C@H](Cc2ccc(O)cc2)NC(=O)[C@H](C(C)C)NC(=O)[C@@H](NC(=O)[C@@H](NC(=O)[C@H](CC(N)=O)NC(=O)[C@H](Cc2c[nH]c3ccccc23)NC(=O)[C@H](C)NC(=O)[C@H](Cc2ccccc2)NC(=O)CNC(=O)[C@H](CCCCN)NC(=O)[C@H](Cc2ccccc2)NC(=O)[C@H](Cc2ccccc2)NC(=O)[C@H](CCCCN)NC(=O)OCC2c3ccccc3-c3ccccc32)C(C)C)CSSC[C@@H](C(=O)N[C@@H](Cc2c[nH]cn2)C(=O)N[C@@H](CCCNC(=N)N)C(=O)N[C@@H](CCCNC(=N)N)C(=O)N[C@@H](C)C(=O)N[C@@H](CC(N)=O)C(N)=O)NC(=O)[C@H](C(C)C)NC(=O)[C@H](CCCNC(=N)N)NC1=O | – | ICR mice, serum | intraductal mammary, 10 mg/kg, day 5 | phosphorus | 3.28 ± 0.19 mmol/L
Cc1ccccc1-c1ccc(-c2nc(-c3ccc(CN(C)CCCC(=O)O)c([18F])c3)no2)cc1C(F)(F)F | – | rat, spleen | 5 min | tracer uptake | 1.1 %ID/g
N#[11C]c1ccc(-c2csc(NN=C3CCCC3)n2)cc1 | radio-HPLC | C57BL/6 mouse, heart | intravenous, 37 MBq, 5 min | unchanged compound | 52.7% and 53%
CN1Cc2cc(Cl)ccc2-n2c(nnc2C2CCN(c3cccc([18F])n3)CC2)C1 | – | C57BL/6 mouse male, testis | intravenous, 3.7 MBq, 1 min | tissue uptake | 0.47 ± 0.08 %ID/g
C=C/C=C/C[C@@H](C)[C@@H](O)[C@H]1C(=O)N[C@@H](CC)C(=O)N(C)CC(=O)N(C)[C@@H](CC(C)C)C(=O)N[C@@H](C(C)C)C(=O)N(C)[C@@H](CC(C)C)C(=O)N[C@@H](C)C(=O)N[C@H](C)C(=O)N(C)[C@@H](CC(C)C)C(=O)N(C)[C@@H](CC(C)C)C(=O)N(C)[C@@H](C(C)C)C(=O)N1C | – | Wistar Kyoto rat, male, 24-hour urine | ip, 0.5 mg/kg/day, day 18 | urine volume | 7.2 ± 3.5 mL/day
O=C1NC2(CC2)COc2ncc(F)cc2[C@H]2COCCN2c2ccn3ncc1c3n2 | – | Sprague-Dawley rat, male, heart | oral, 10 mg/kg/day, 4 weeks, end of treatment | organ-to-brain weight ratio | 84.5 ± 12.7%

Repeated from above:
SMILES | assay | test system | conditions | quantity | result
N#[11C]c1ccc(-c2csc(NN=C3CCCC3)n2)cc1 | radio-HPLC | C57BL/6 mouse, heart | intravenous, 37 MBq, 5 min | unchanged compound | 52.7% and 53%
